{"data": "Results pooled from the literature", "note": "Numbered parts are unrelated; each lists some results of a single study.", "chain of UniProt P27361 (whole entry, looked up)": "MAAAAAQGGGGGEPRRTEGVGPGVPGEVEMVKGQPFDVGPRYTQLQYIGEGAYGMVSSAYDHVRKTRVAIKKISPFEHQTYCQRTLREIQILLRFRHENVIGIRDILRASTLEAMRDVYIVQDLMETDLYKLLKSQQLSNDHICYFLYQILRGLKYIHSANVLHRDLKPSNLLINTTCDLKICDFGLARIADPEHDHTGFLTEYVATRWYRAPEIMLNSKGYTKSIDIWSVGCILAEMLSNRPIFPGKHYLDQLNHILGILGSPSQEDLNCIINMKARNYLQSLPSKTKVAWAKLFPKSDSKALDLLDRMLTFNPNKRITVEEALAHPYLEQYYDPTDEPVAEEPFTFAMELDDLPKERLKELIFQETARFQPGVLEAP", "chain of UniProt P41143 (whole entry, looked up)": "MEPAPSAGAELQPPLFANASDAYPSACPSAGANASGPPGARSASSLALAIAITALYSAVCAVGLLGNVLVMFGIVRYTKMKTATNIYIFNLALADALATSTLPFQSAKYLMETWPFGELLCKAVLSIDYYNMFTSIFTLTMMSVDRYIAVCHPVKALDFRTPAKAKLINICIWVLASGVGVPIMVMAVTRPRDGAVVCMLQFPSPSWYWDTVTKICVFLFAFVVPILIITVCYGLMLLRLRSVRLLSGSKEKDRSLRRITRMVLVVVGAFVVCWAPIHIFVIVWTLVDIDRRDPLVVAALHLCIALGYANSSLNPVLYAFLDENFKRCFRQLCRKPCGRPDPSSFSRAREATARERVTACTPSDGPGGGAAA", "chain of UniProt P28223 (whole entry, looked up)": "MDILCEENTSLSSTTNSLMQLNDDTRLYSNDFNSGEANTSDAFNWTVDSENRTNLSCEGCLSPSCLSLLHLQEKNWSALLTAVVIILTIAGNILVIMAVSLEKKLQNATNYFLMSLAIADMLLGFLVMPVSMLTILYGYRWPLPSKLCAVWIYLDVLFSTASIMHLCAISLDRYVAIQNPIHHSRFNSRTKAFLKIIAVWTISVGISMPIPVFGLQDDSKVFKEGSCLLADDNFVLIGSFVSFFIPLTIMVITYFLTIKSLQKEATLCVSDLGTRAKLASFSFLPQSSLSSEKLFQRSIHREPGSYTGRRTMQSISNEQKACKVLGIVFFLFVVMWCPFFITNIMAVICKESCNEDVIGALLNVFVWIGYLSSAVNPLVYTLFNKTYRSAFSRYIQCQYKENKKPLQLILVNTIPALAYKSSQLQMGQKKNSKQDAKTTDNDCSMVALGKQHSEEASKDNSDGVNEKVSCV", "chain of UniProt P35372 (whole entry, looked up)": "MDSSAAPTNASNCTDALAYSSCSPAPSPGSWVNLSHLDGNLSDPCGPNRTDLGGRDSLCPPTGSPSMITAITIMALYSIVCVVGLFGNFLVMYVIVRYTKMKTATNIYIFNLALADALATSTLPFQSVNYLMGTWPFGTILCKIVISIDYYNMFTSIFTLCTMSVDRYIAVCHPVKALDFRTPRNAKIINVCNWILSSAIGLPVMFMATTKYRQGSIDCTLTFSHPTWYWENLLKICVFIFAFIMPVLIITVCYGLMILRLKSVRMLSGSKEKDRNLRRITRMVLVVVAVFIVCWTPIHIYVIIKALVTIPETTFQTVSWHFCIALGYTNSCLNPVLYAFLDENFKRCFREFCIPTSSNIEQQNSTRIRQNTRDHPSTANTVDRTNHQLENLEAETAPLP", "chain of UniProt P20309 (whole entry, looked up)": "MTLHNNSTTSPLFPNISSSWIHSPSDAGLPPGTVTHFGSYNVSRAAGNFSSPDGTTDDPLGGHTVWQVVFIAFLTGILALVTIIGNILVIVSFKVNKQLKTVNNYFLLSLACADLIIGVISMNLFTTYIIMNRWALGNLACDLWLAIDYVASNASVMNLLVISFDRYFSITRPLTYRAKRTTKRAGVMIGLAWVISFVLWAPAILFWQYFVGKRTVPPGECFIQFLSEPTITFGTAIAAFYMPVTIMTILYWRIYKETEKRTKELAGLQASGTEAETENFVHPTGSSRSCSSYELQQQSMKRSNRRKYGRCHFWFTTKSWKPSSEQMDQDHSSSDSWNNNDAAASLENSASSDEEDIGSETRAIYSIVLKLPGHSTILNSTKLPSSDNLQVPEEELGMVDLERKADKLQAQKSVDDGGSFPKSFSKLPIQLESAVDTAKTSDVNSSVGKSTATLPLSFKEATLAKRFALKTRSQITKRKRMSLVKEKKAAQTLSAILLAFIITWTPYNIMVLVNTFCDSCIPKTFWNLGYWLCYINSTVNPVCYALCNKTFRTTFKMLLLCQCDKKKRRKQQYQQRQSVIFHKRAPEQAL", "chain of UniProt Q8IYT8 (whole entry, looked up)": "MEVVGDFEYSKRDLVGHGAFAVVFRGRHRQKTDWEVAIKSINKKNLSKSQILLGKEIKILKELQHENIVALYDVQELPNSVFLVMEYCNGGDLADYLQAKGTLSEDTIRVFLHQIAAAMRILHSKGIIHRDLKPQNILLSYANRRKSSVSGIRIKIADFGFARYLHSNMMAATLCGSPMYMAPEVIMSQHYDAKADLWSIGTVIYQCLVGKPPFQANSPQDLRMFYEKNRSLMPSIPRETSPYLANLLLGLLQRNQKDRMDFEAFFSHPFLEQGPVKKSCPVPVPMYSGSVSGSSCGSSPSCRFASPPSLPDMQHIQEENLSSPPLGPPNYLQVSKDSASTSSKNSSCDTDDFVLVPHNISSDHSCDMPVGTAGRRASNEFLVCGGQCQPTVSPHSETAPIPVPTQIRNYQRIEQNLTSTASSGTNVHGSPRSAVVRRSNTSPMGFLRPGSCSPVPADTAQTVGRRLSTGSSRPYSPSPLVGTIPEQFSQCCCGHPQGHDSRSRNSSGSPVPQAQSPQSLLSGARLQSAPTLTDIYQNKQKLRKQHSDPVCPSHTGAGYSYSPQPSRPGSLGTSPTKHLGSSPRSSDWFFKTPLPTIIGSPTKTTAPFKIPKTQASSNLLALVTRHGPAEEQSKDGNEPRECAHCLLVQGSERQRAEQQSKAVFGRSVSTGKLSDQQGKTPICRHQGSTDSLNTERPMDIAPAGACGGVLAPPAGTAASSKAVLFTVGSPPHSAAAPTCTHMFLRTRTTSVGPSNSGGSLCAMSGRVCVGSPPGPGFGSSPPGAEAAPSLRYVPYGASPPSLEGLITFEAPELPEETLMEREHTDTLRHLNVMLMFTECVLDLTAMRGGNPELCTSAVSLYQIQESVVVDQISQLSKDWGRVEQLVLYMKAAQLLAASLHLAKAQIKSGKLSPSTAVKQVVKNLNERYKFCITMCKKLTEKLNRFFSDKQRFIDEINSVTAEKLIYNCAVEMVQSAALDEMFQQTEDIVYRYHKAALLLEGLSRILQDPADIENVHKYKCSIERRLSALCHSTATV", "chain of UniProt Q9UHD2 (whole entry, looked up)": "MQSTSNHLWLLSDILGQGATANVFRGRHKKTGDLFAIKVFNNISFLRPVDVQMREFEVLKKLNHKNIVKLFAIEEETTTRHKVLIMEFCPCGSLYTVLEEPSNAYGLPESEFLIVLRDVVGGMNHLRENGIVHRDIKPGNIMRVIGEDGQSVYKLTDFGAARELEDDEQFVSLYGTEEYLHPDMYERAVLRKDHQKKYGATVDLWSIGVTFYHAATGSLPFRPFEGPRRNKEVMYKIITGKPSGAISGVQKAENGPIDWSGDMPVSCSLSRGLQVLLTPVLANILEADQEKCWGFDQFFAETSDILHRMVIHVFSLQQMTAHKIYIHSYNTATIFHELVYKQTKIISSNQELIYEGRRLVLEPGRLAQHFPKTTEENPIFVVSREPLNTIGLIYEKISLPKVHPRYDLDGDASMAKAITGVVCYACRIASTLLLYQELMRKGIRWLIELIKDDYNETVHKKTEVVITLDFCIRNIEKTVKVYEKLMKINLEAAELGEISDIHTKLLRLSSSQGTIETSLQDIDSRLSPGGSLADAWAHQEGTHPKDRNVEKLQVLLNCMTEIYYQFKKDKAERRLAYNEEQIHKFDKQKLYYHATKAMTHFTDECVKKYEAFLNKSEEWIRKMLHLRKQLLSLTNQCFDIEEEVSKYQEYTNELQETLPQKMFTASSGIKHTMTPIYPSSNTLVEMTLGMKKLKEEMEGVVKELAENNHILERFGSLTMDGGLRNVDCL", "chain of UniProt Q99558 (whole entry, looked up)": "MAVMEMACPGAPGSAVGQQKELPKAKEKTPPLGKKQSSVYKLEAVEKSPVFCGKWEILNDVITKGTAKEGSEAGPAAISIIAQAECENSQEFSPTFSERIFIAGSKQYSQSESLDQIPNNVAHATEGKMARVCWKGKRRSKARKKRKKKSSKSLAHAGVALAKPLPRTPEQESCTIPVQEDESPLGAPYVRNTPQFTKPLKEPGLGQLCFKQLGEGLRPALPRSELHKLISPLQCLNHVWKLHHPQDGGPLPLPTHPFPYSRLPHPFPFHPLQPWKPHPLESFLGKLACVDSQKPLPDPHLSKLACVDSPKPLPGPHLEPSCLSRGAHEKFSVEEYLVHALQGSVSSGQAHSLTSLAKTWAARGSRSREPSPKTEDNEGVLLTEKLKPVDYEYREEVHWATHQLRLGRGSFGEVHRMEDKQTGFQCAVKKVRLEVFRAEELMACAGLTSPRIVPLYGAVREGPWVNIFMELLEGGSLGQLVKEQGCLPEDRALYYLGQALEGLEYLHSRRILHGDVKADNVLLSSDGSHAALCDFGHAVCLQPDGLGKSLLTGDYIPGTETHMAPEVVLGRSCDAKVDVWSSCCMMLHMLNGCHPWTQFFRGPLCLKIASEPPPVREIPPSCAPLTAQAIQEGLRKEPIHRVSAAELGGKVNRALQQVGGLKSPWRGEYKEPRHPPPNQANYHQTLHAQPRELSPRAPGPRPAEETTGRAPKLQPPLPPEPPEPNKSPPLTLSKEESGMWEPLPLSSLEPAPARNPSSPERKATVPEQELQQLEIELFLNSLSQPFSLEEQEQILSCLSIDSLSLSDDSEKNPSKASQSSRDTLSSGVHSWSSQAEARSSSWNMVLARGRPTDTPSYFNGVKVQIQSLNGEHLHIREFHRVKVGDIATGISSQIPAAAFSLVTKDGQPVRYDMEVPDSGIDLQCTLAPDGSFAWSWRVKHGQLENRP"}
{"data": "Set 1", "cell line": "HaCaT", "concentration": "100 µM", "time": "36 h"}
{"SMILES": "C[C@@H]1[C@H](O)[C@@H](C)/C=C/C=C/CC/C=C/C=C/C=C/C=C/[C@H](O[C@H]2O[C@@H](C)[C@H](O)[C@@H](N)[C@H]2O)C[C@@H]2O[C@](O)(C[C@@H](O)[C@H](O)CC[C@@H](O)C[C@@H](O)C[C@@H](O)CC(=O)O[C@H]1C)C[C@H](O)[C@H]2C(=O)O", "viability [%]": 79.1}
{"SMILES": "CC[C@@]1(O)C(=O)OCc2c1cc1n(c2=O)Cc2cc3cc(O)ccc3nc2-1", "viability [%]": 7.54}
{"SMILES": "CNCC(O)c1ccc(O)cc1 (centres unmarked)", "viability [%]": 90.3}
{"data": "Set 2", "target": "vesicular stomatitis virus glycoprotein", "observed": "viral entry", "technique": "VSVΔG-G pseudovirus", "concentration": "10 µM"}
{"Structure (SMILES)": "Cc1ccc(/C(C#N)=C2\\C=CC(=NO)C(Cl)=C2)cc1", "inhibition [%]": -4}
{"Structure (SMILES)": "O=C(/C=C/S/C=C/C(=O)c1ccc(F)cc1)c1ccc(F)cc1", "inhibition [%]": -0.7}
{"Structure (SMILES)": "C=C(C#N)CN1CCN(CC(=C)C#N)CC1", "inhibition [%]": 17}
{"Structure (SMILES)": "CS(=O)(=O)c1ncc(Cl)c(C(=O)N2CCN(C(c3ccccc3)c3ccccc3)CC2)n1", "inhibition [%]": 29}
{"Structure (SMILES)": "CCc1c2c(nc3ccc(O)cc13)-c1cc3c(c(=O)n1C2)COC(=O)[C@]3(O)CC", "inhibition [%]": -1.5}
{"Structure (SMILES)": "CC(C)CC1(C)NC(=O)N(Cc2cc([N+](=O)[O-])cc3c2OCOC3)C1=O (centres unmarked)", "inhibition [%]": -2}
{"Structure (SMILES)": "COc1ccc(N2CCN(C(=O)c3nc(S(C)(=O)=O)ncc3Cl)CC2)cc1", "inhibition [%]": 33}
{"Structure (SMILES)": "CCCN(CCC)c1nc(N)ncc1[N+](=O)[O-]", "inhibition [%]": -55}
{"data": "Set 3", "Compound": "CS(=O)(=O)c1cc(C2(NC(=O)c3cncc4c3cnn4-c3ccc(F)cc3)CC2)ccn1", "observed": "cell-free assay", "concentration": "10 µM"}
{"target": "OPRD1 (Homo sapiens, UniProt P41143)", "inhibition": "-5.92%"}
{"target": "OPRM1 (Homo sapiens, UniProt P35372)", "inhibition": "-7.9%"}
{"target": "OPRK1 (Homo sapiens, UniProt P41145)", "inhibition": "1.68%"}
{"target": "DRD5 (Homo sapiens, UniProt P21918)", "inhibition": "-0.37%"}
{"target": "HTR2A (Homo sapiens, UniProt P28223)", "inhibition": "20.4%"}
{"target": "CHRM3 (Homo sapiens, UniProt P20309)", "inhibition": "22%"}
{"data": "Set 4", "Compound": "CCn1cnc2c(Nc3cccc(Cl)c3)nc(N[C@H]3CCCC[C@H]3N)nc21", "observed": "enzyme activity", "mode": "inhibitor", "concentration": "0.5 µM", "relative to": "control"}
{"target": "MAP2K2 (Homo sapiens, UniProt P36507)", "remaining activity": "107%"}
{"target": "TEK (Homo sapiens, UniProt Q02763)", "remaining activity": "99.9%"}
{"target": "MAPKAPK2 (Homo sapiens, UniProt P49137)", "remaining activity": "94.9%"}
{"target": "TBK1 (Homo sapiens, UniProt Q9UHD2)", "remaining activity": "92.8%"}
{"target": "JAK3 (Homo sapiens, UniProt P52333)", "remaining activity": "99.6%"}
{"target": "MAPK3 (Homo sapiens, UniProt P27361)", "remaining activity": "108%"}
{"target": "ULK2 (Homo sapiens, UniProt Q8IYT8)", "remaining activity": "94.2%"}
{"target": "ACVR1B (Homo sapiens, UniProt P36896)", "remaining activity": "110%"}
{"target": "MAP3K14 (Homo sapiens, UniProt Q99558)", "remaining activity": "85.1%"}
{"note": "Some of these lines once more (set 4):"}
{"target": "MAP3K14 (Homo sapiens, UniProt Q99558)", "remaining activity": "85.1%"}
